Results from different studies.
Numbered parts are unrelated; each lists some results of a single study.

Set 1
Target: Sal-like protein 4, full length isoform A (SALL4, Homo sapiens, UniProt Q9UJQ4, residues 1-1053)
Chain of UniProt Q9UJQ4 (whole entry, looked up): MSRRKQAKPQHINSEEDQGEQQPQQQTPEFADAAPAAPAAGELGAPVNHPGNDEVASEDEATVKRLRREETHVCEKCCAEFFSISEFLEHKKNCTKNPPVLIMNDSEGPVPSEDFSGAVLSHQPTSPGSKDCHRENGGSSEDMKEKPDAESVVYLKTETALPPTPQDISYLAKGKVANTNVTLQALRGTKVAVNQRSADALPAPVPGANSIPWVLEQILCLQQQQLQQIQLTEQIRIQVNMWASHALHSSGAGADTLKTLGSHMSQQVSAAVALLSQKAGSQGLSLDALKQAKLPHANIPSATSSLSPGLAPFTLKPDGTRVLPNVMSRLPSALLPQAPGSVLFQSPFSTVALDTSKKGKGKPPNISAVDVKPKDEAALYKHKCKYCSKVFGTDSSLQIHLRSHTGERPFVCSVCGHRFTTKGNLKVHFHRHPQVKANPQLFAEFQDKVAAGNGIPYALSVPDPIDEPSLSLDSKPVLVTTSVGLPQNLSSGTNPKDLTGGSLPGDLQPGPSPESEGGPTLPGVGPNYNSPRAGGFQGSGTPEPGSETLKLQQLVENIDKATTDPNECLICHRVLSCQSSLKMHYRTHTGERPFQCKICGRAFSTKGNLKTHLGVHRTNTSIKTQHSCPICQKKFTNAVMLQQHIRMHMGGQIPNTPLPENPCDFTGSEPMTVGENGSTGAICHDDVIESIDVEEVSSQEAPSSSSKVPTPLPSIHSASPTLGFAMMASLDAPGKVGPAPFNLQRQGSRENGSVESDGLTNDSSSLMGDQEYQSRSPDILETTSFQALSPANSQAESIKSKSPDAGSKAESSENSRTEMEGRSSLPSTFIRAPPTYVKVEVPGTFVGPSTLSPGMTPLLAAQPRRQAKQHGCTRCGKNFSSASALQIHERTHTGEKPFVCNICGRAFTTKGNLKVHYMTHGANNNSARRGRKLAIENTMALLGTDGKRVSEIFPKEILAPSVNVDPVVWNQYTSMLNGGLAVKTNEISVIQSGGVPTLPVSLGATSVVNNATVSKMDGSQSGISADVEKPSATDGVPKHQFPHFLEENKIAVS
Technique: universal PBM
Form: double-stranded DNA, one strand shown
Sample: in vitro
Concentration: 600 nM
Notes: 8-mer, flanks averaged, mean of replicates
Reading: higher = stronger binding
Oligonucleotide	E-score
ACCCGGGA	-0.301
AGTCTGGC	-0.181
AACAGATA	0.145
CAATACGC	0.0245
ACGCACGG	-0.28
ATGCGGCC	-0.227
ACTGTTTG	0.158
CCGCTAAG	-0.157
ACAGCCTC	-0.244
ACGATCCC	-0.225
GGCTAGAA	-0.0417
CCACAACC	-0.0258
CCTACCTA	0.0123
ATCCATCC	0.107
AGTTGATC	0.0147
ACGAATTC	0.136
AGTTTGAG	-0.0312
TGAGACAA	-0.0683
AGGTCCAA	-0.0607
ACAGCATC	-0.031
AGTAGGCG	-0.21
ACAGAGGT	0.0174
ACAGTGTA	0.0889
CGCTAAAC	-0.104
CAAGTTCG	-0.185

Set 2
Target: PABPC1L2, full length, GST fusion (mouse, UniProt A0ABA7IW68)
Technique: RNAcompete
Form: RNA
Sample: in vitro
Concentration: 20 nM
Notes: 7-mer, probes averaged, single round
Relative to: mean of 7-mers
Reading: higher = stronger binding
Construct (chain): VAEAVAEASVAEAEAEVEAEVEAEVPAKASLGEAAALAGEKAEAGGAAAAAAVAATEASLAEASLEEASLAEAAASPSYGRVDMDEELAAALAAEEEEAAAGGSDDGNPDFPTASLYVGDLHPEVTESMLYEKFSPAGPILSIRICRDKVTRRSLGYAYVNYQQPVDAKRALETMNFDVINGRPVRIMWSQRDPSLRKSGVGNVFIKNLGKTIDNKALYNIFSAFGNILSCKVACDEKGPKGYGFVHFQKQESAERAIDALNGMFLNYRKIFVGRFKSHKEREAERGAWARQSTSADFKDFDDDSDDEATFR
Oligonucleotide	7-mer Z-score
AAUUCGA	0.269
GCCCCAC	-0.316
UACUGCC	-0.492
CGCAAGA	-0.0391
AAUGAGA	0.189
UUGCUUA	-0.405
UAAGCAG	0.00979
GGUGUCU	-0.112
CAAAAGU	1.79
AAGCGCA	0.258
ACUCCUA	-0.188
GUCGCAU	-0.335
UGUGUGA	-0.273
GCAUCAG	0.175
AUCUUCG	-0.278
UCAUUCA	-0.186
AGAACUU	-0.186
GUUUAAG	-0.217
CCACGGG	-0.0409
AGUUUCA	-0.306
GGUUAGC	-0.0935
AGAUGUG	-0.121
GCUUAUU	-0.237
CCACUUG	-0.208

Set 3
Target: Interferon regulatory factor 7, full length, phosphomimetic (IRF7, Homo sapiens, UniProt Q92985, residues 1-503, S471D/S472D/S475D/S476D/S477D/S483D/S484D/S487D)
Technique: protein-binding microarray
Form: double-stranded DNA, one strand shown
Sample: in vitro
Concentration: 2200 nM top
Notes: 60-bp whole probe
With: salmon DNA 0.4 mg/ml
Relative to: random background probes
Reading: higher = stronger binding
Constant ends, left off below: GCCTAGCAC … GTCTTGATTCGCTTGACGCTGCTG
Construct (chain): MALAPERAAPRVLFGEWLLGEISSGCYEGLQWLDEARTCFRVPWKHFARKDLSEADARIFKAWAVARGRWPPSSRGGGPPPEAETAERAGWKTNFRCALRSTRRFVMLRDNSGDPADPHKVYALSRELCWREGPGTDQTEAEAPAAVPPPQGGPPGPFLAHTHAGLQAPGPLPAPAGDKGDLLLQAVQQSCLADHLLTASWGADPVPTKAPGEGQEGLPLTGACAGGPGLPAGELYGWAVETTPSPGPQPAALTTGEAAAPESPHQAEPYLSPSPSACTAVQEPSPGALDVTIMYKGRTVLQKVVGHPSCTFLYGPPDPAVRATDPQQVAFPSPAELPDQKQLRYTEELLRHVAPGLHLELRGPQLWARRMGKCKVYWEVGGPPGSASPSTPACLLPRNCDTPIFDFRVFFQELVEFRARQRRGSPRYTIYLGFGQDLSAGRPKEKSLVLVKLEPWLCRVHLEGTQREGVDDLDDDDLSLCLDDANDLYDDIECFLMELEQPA
Oligonucleotide	fitted relative affinity [z-score]
AAATATTTACCTCTCACGCAGTGCTAG	0.227
TCAATTTTTACTTTCTGACTGTGCTAG	3.08
TTATATTCCAGTTTCGATTAGTGCTAG	7.03
GACGGTATCGGTAGCGGGACGTGCTAG	-0.233
TTAGCACTGCTTTTCCTTTAGTGCTAG	1.79
GACGGACTGCTTACCCTGACGTGCTAG	0.405
TCACCTTTGTTTTTTTCACTGTGCTAG	2.05
GACGGACTGGGGTATCGGAACGTGCTA	-0.773
CTCCACTTGTGTTTGGGCATGTGCTAG	1.59
TCAATTGTCTCTGTCCCACTGTGCTAG	1.61
TCATGATTGAATCTCCCACTGTGCTAG	0.827
TTAGGTCTCCTTTTCCTTGAGTGCTAG	1.33
GACGGACTGGGGTCTCGGGACGTGCTA	-0.824
GACGGACTTGGACTGGGGACGTGCTAG	-0.678
GACGGTATCGACACTGGGGACGTGCTA	-0.31
GACTATCTCAGACTGGAGACGTGCTAG	0.113
CTGTTTTTGCTTTCTTTTTGGTGCTAG	7.15
GACGGACTGGGGACTGAGGACGTGCTA	-1.12
GACGATTTCGGGTATAGAGACGTGCTA	2.16

Set 4
Target: Histone acetyltransferase KAT6A, winged helix 1, GST fusion (KAT6A, Homo sapiens, UniProt Q92794, residues 1-85)
Technique: protein binding microarray
Form: double-stranded DNA, one strand shown
Sample: in vitro
Concentration: not given
Notes: 8-mer, flanks averaged, mean of 2 arrays, mostly near background
Relative to: not given
Reading: higher = stronger binding
Target sequence (chain): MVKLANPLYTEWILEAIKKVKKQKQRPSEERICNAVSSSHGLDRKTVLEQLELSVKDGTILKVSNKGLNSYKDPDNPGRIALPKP
Oligonucleotide	E-score
ATTAACAG	-0.0267
GAGTACTC	-0.117
AAGGACTA	-0.257
CGAATTCC	-0.0191
CACTTCGG	-0.00487
GAGTTATA	-0.0689
GTGTGGTA	-0.227
AGGCAAAG	-0.168
ATTTGTGA	-0.123
CCGATAAA	-0.0311
CGACCAAA	-0.165
GTTATAAC	0.172
GAGATGCC	0.04
CGCTTGGC	0.297
CATCGCAG	0.0194
AAGATCTC	-0.144
AAACAGTG	-0.0788
CAGGGCAA	-0.115
AAAGAACG	0.0336
CCTACACC	-0.171
ACATCAAT	-0.133
ACGCCGCA	0.311
ACGCAACG	0.235
GTAGCAAC	-0.0665
CTTCCTCA	-0.0854

Set 5
Target: RNA binding protein fox-1 homolog 2, RRM domain, GST-SBP tag (RBFOX2, Homo sapiens, UniProt O43251-10, residues 100-194)
Technique: RNA Bind-n-Seq
Form: RNA
Sample: in vitro
Concentration: 365 nM
Notes: natural RNA segment, single round, ends assumed
Relative to: no-protein control
Reading: higher = stronger binding
Constant ends, left off below: GGGAGUUCUACAGUCCGACGAUC … UGGAAUUCUCGGGUGCCAA
Target sequence (chain): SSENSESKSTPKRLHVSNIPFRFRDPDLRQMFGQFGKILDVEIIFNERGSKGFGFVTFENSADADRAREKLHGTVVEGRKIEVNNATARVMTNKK
Oligonucleotide	RBNS enrichment (R)
UGCAUAAUUAGUUAGAAAGGAUGUAUACCAUGCUGAAACCAUUCUGUUGCUAUUUAGGACCAAAACAUUUUCAGACAGUAGGUAGGCUUUUACAUUCCCUUGCUCCGUUA	0.374
GAACAGGAAGUUUGCUCUAAGAUGAGACUGUUGUUGUCUGGACUUCCUCUAGAAAUCCCAGCAGAAUCUGUUGCCUCCCCCAACCCCUAACUUUGCCACUUCAAGCCUCA	1.65
CUCGGCAGCAGUGACUGCAGCCCCAGCUUGCUUAAGCAGUGUAACAGCAGGGAAGCGGGAGGAGCUGAGAACUAUUAGAAGUUCCUAUUAUUUAUAAAUUCCACCCAAAG	0.356
CUGGUAGACCGUUCUGGAAUGGAGGGGCUAUGAUCGUCCUAGGACCUGUGCUACGGAGGGGUGGAGGGCACUGAGUAGGGCUCUGCCCUAUUCAUCUUGUUGGAACCCCA	0.372
CUCCCACUGUCCUCAGAGAGCCUGCAUGGAAAUGCUGUCCUCUUCCACUCUCCUCCUCUUUUUGAUACCCACCCUCACUAGCUGCCUCCAGCUCUGGAGUGGGGUGCUAU	0.849
AGAAUUCCUUCAUGGUUGAAGAUGUGAAUAAUUGCACAUGAUCUCUUAGAGGAACUGUAAAUCUAUUGCCCAGUCAUAACAUUUUGAGCUGCAUUUAAGUAGACUAUGGA	0.481
AAAACCUUUGUUUCCUGUGGGGGGAGGACUGAACAUGUGGUCUUAACAGCCUUUUGUACAGAUAUCUACAAAUCAAACGAUGUCUCUAUCCAGUGCUUGCCCUCGGAGUG	0.39
UAAAAUGGAACUAAAGAUAGAAGGAGGACUGUAGGAAGAAAUGGAAUAAUUUAAAUGUGAGGAAAGAUAUCUGUGGUAGACAUGUCCUUCCAUGACUAAUUUCUAAUUGU	1.09

For quick reference, copied from above (set 3):
Oligonucleotide	fitted relative affinity [z-score]
GACGGTATCGGTAGCGGGACGTGCTAG	-0.233
TCACCTTTGTTTTTTTCACTGTGCTAG	2.05
AAATATTTACCTCTCACGCAGTGCTAG	0.227
GACGATTTCGGGTATAGAGACGTGCTA	2.16
TCATGATTGAATCTCCCACTGTGCTAG	0.827
CTGTTTTTGCTTTCTTTTTGGTGCTAG	7.15
GACGGACTTGGACTGGGGACGTGCTAG	-0.678
TCAATTGTCTCTGTCCCACTGTGCTAG	1.61
CTCCACTTGTGTTTGGGCATGTGCTAG	1.59
TTATATTCCAGTTTCGATTAGTGCTAG	7.03
GACTATCTCAGACTGGAGACGTGCTAG	0.113
GACGGACTGGGGTATCGGAACGTGCTA	-0.773
TCAATTTTTACTTTCTGACTGTGCTAG	3.08
GACGGACTGGGGTCTCGGGACGTGCTA	-0.824
